# Results collected from several papers.
# Lines come from different studies, so protocols differ.
Compound,organism,test,test system,setting,how to read,measurement,value
[Cl-].[Cl-].[Mn+2].c1ccc(CN2CCNCCN(Cc3ccccc3)CCNCC2)cc1,Leishmania donovani,"parasite growth, resazurin",,"72 h, promastigote",,IC50,2.82 µM
CN[C@@H]1[C@H](O)[C@H](NC)[C@H]2O[C@]3(O)[C@H](O[C@@H]2[C@H]1O)O[C@H](C)C[C@@]3(O)CNCc1ccc(Cl)cc1,Neisseria meningitidis,,ATCC 13077,40 µg per disc,,inhibition zone diameter,16 to 18 mm
CN(C)c1ccc(/C=C/C(=O)C(C(=O)c2ccccc2)=C2SCCCCS2)cc1,Mycolicibacterium smegmatis,,pTet-ClpP1P2 chromosomal,,,MIC50,> 100 µM
CC[C@H](C)[C@H](NC(=O)[C@H](CCCCN)NC(=O)[C@H](CCCCN)NC(=O)[C@H](CC(C)C)NC(=O)[C@H](CCCCN)NC(=O)[C@H](CCC(=O)O)NC(=O)[C@H](CCCCN)NC(=O)[C@@H](NC(=O)[C@H](CCCCN)NC(=O)[C@H](CC(N)=O)NC(=O)[C@H](CCCNC(=N)N)NC(=O)[C@H](Cc1ccccc1)NC(=O)[C@H](CCCCN)NC(=O)[C@H](CCCNC(=N)N)NC(=O)[C@H](CC(C)C)NC(=O)[C@H](CCCNC(=N)N)NC(=O)[C@H](CCCCN)NC(=O)[C@H](CCCNC(=N)N)NC(=O)[C@@H](N)CC(C)C)[C@@H](C)CC)C(=O)NCC(=O)N[C@@H](CCC(N)=O)C(=O)N[C@@H](CCCCN)C(=O)N[C@H](C(=O)N[C@@H](CCC(N)=O)C(=O)NCC(=O)N[C@@H](Cc1ccccc1)C(=O)N[C@H](C(=O)N1CCC[C@H]1C(=O)N[C@@H](CCCCN)C(=O)N[C@@H](CC(C)C)C(=O)O)C(C)C)[C@@H](C)CC,Staphylococcus epidermidis,inhibition zone,penicillin-resistant P1389,,,lethal concentration,1.15 µM
CC(=O)Oc1ccc(Cn2nc(C)c(=O)[nH]c2=O)cc1C1OC(c2cccc(Cl)c2)=NN1C(C)=O (stereo not shown),varicella-zoster virus,"plaque formation, plaque reduction","HEL fibroblasts, TK- strain 07-1",,,EC50,> 20 µM
CC(=O)[O-].F[P-](F)(F)(F)(F)F.[Co+2].c1ccc(CN2CCCNCCN(Cc3ccccc3)CCCNCC2)cc1,Leishmania donovani,"parasite growth, resazurin",,"72 h, amastigote",,IC90,> 15 µM
CC1(C)C(C=C(Cl)Cl)C1C(=O)OCc1c(F)ccc(F)c1F (stereo not shown),Anopheles funestus,glazed tile contact bioassay,FUMOZ-R resistant,24 h,baseline: LC50 FUMOZ-R over LC50 FANG,resistance ratio,5.77
COc1ccc(-c2oc3ccc(-c4cc(OC)c(OC)c(OC)c4)cc3c2C#CC2(O)CCCCC2)cc1,hepatitis C virus,HCV replicon replication,"Huh-7.5.1, genotype 1a transient replicon",10 µM,baseline: DMSO,remaining activity,86.4%
C=CC1CN(C(=O)NCC=CCSSSCC=CCNC(=O)N2CC(C=C)OC2=S)C(=S)O1 (stereo not shown),human alphaherpesvirus 1,,,,baseline: CC50 over EC50,selectivity index,2.68
CC(CCC(=O)[O-])C1CCC2C3CCC4CC(O)CCC4(C)C3CCC12C.C[N+](C)(C)CC(O)CC(=O)O (stereo not shown),Shigella flexneri,,ATCC 9199,"1 mg per disc, 18 to 24 h, 37 °C",,antibacterial activity,inactive
CC(=O)[O-].F[P-](F)(F)(F)(F)F.[Ni+2].c1ccc(CN2CCN3CCN(CC2)CCN(Cc2ccccc2)CC3)cc1,Leishmania donovani,"parasite growth, resazurin",,"72 h, promastigote",,IC90,> 20 µM
CC[C@@H](C)[C@@H](NC(=O)[C@@H](C)NC(=O)[C@@H](CCCCN)NC(=O)[C@@H](CC(C)C)NC(=O)[C@@H](C)NC(=O)[C@H](NC(=O)[C@@H](Cc1c[nH]cn1)NC(=O)[C@@H](CC(C)C)NC(=O)[C@H](NC(=O)[C@H](NC(=O)[C@@H](CCCCN)NC(=O)[C@@H](CCCCN)NC(=O)[C@@H](C)NC(=O)[C@@H](CO)NC(=O)[C@@H](CCCCN)NC(=O)[C@@H](Cc1ccccc1)NC(=O)[C@H](NC(=O)[C@@H](CCCCN)NC(=O)[C@@H](CC(C)C)NC(=O)[C@@H](Cc1ccccc1)NC(=O)[C@@H](CO)NC(=O)[C@@H](CCCCN)NC(=O)[C@@H](Cc1c[nH]c2ccccc12)NC(=O)[C@@H](CCCCN)NC(C)=O)[C@H](C)O)[C@H](C)O)C(C)C)[C@H](C)O)C(=O)N[C@H](CO)C(=O)N[C@H](CO)C(N)=O,Rhizomucor,,clinical isolate,"48 h, 30 °C",,MIC90,6.3 µg/mL
CCn1c(-c2ccc(-c3ccc(F)cc3)cc2)c(-c2ccc(-c3ccc(F)cc3)cc2)n(CC)c1=[Se+][Au-][P+](CC)(CC)CC.[Cl-],Acinetobacter baumannii,"bacterial growth, checkerboard microdilution",carbapenem-resistant,with: imipenem,,FIC index,0.5
